# Measured values from different studies.
# Parts stem from different laboratories: compare values within a part only.

# Study 1
# Target: RING finger protein unkempt homolog, zinc fingers 1-6, GST-SBP tag (UNK, Homo sapiens, UniProt Q9C0B0, residues 30-357)
# Technique: RNA Bind-n-Seq
# Molecule type: RNA
# Matrix: in vitro
# Concentration: not given
# Setting: RNA with constant flanks, human-mouse chimeric sites, ends assumed
# Relative to: input RNA pool
# Direction: higher = stronger binding
# Target sequence (chain): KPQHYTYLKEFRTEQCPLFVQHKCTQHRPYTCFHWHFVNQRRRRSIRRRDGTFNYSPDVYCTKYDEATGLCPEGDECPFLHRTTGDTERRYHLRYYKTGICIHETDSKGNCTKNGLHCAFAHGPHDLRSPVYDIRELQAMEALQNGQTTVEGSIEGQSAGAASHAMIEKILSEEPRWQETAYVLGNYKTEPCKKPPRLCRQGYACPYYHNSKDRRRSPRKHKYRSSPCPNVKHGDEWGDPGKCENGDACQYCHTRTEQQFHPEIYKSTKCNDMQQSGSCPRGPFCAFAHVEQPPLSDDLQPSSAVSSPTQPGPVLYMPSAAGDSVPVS
Oligonucleotide,bound/input enrichment [ratio]
GGGAGUUCUACAGUCCGACGAUCGCUCCUCCCCGCUCUGCAGCCUGGGGACUUUUGGCAAGGACCAGAAUCCAGCUUUCUUUUAAAACUCUCAGUGUAACUGUAUCCCGUGACAUUUCAUUUUUUUUUUAUAGUGUAUUUUUUCAACAGAGGAUUGAGCAUCA,15.4
GGGAGUUCUACAGUCCGACGAUCUGACAAGGGCACUGCAGGGCCAUGCCUUUCCUUGACAUACAGAAAAAGCUGGGCAUCAGCCUGGACCGGCACUUUAUGUUCCUAAGCGCAGAACAGCCCUAUAAGAACGCCGCUCGGUGCCAACAGAGGAUUGAGCAUCA,0.061
GGGAGUUCUACAGUCCGACGAUCGCUGGAUCUUCUAAGUACCAGUGGGACAUUAUGAAAUCCCUUGGGCUCUCUGAUGACGAGAUAGUAAAGUUUUCUGAAGCAGAGCACUGGCUUGAUUAUUUCCCACCACUGGCCGUUCAGCAACAGAGGAUUGAGCAUCA,0.175

# Study 2
# Target: Prothrombin, mature alpha-thrombin (F2, Homo sapiens, UniProt P00734)
# Technique: aptamer microarray, sandwich
# Molecule type: DNA with 2'F-ANA
# Matrix: in vitro
# Concentration: 200 nM
# Setting: whole 15-mer aptamer, many near background
# Together with: Cy3 exosite-II aptamer, 400 nM
# Direction: higher = stronger binding
# Oligonucleotide: GGTTGGTGTGGTTGG
Modification,mean fluorescence intensity
2'F-ANA at 1 2 3 4 6 11 12,249 a.u.
2'F-ANA at 5 6 7 13 14,48.8 a.u.
2'F-ANA at 5 6 7 8 10 11 12 15,49.7 a.u.
2'F-ANA at 1 3 6 8 9 10 12 14 15,66.5 a.u.
2'F-ANA at 1 2 3 4 5 7 8 9 11 13 15,54.1 a.u.
2'F-ANA at 1 5 6 8 10 11 15,52.5 a.u.

# Study 3
# Target: Interferon regulatory factor 5, full length, phosphomimetic (IRF5, Homo sapiens, UniProt Q13568-2, residues 1-514, S451D/S453D/S456D/S462D)
# Technique: protein-binding microarray
# Molecule type: double-stranded DNA, one strand shown
# Matrix: in vitro
# Concentration: 940 nM top
# Setting: 60-bp whole probe
# Together with: salmon DNA 0.4 mg/ml
# Relative to: random background probes
# Direction: higher = stronger binding
Oligonucleotide,fitted relative affinity
GCCTAGCACCCATTTTGTGTTTTCATTTTGTGCTAGGTCTTGATTCGCTTGACGCTGCTG,1.41 z-score
GCCTAGCACTTAGTTCTCCTTTTCCTTTAGTGCTAGGTCTTGATTCGCTTGACGCTGCTG,1.94 z-score
GCCTAGCACTCATTTTTGTATTTTTGACTGTGCTAGGTCTTGATTCGCTTGACGCTGCTG,0.757 z-score

# Other studies, line by line
Substance,target,assay,test system,conditions,scale,quantity,result
"PhoQ, residues 284 288 289 292 302 303 GNNTDL","PhoP, residues 12 14 15 18 19 NHFIF (Escherichia coli, UniProt P23836)","Sort-seq, item: YFP reporter",E. coli,"PhoQ-PhoP variant library, together with: 10 µM Mg2+","relative to: high Mg2+ state, higher = stronger signaling",fold induction,1.15

# A few entries again (study 2):
Modification,mean fluorescence intensity
2'F-ANA at 1 2 3 4 6 11 12,249 a.u.
